Published values of several laboratories.
Every numbered part comes from another study and shows a few of its results, in no order. Substitutions count along the parent as printed.

Block 1 — technique: protein-binding microarray; molecule type: double-stranded DNA, one strand shown; sample: in vitro; tested at: not given; reading: higher = stronger binding
Target: Myc proto-oncogene protein, bHLH-zipper, MAX partner unstated (MYC, Homo sapiens, UniProt P01106, residues 368-449)
Chain of UniProt P01106 (368-449, looked up): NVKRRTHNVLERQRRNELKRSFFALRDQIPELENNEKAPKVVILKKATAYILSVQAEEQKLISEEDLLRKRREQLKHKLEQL
Notes: k-mer, scored over probes, only values ≥0.25
Strand | E-score
CCCTCGAG | 0.26
CATGTTAG | 0.256
CCATGTGC | 0.487
ATGAGGGG | 0.313
ACCATGCG | 0.467
CATCGTGG | 0.407
CATGTGAG | 0.422
ACCGTGTG | 0.272
ACACGCCT | 0.346
AATGTGTC | 0.278
AGGCCACG | 0.34
CGCGCACG | 0.404
CATGGTGG | 0.366
CGTGTGAC | 0.286
AGGGGTGG | 0.296
CAGCATGC | 0.418
ACACCTGG | 0.256
CCAGCACG | 0.299
AGAACACG | 0.387

Block 2 — technique: RNA Bind-n-Seq; molecule type: RNA; sample: in vitro; tested at: 200 nM; notes: whole 134-nt RNA, ends assumed; added: 150 mM KCl; relative to: input library; reading: higher = stronger binding
Target: Ras GTPase-activating protein-binding protein 1, full length (G3BP1, Homo sapiens, UniProt Q13283)
Chain of UniProt Q13283 (whole entry, looked up): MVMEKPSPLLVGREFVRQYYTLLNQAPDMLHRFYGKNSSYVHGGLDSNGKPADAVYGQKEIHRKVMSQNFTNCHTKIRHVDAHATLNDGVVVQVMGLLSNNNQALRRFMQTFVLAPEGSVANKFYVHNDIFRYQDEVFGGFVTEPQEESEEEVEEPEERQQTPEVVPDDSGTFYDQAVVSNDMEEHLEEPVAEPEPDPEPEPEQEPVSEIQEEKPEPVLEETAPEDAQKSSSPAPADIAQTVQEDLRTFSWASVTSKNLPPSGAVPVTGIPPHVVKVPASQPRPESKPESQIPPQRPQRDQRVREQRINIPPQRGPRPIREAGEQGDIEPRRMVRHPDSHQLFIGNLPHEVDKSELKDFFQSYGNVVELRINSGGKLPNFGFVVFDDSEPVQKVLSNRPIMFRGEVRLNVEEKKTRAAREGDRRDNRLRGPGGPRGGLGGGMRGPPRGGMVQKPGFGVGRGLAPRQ
Shared flanks, not repeated: GGGAGUUCUACAGUCCGACGAUC … UGGAAUUCUCGGGUGUCAAGG
Strand | log2 enrichment
AGUCCUGUGCUACACAUCGUAUGUACCGAAUCGGGAAAAAGGGUUUGGGUUUUUGGGAAAGUAUUAUGUUACGCCGUUCGGAUCUGCACU | -0.385
UGGACAUGGAUUUUCAAGCCUACUUAGCUUCCUCUAGUGAAGAUGAAGAGGAGAUAGAAGAGGAGCUACAAGGUAUUGUUAAUCUUUCAG | -0.775
CAGAACGAUCGAUACAGAAACCACGCUGCCGCCACCACACCAUCACCAUCGACAGAACAGUCCUUAAUCCAGAAACCUGAAAUGAAGGAA | 0.697
UGGGAGGUGGAUUUUGUUUAUUUUUUUAGCUCAUUUCCAGGGGUGGGAAUUUUUUUUUAAUAUGUGUCAUGAAUAAAGUUGUUUUAGAAA | 0.223
UGUGUGCAUUCCCUGCGCCAAGGGCUUCCCCAGCUCUGAGCAGCUCAAUGCGCACGUGGAGACUCACACGGAGGAAGAGCUGUUCAUCAA | -1.6
AGUCCUGUGCUACACAUCGUAUGUACCGAAUCGGCCCCCGGGGCCCCCGGCCCCCGGGAAAGUAUUAUGUUACGCCGUUCGGAUCUGCAC | -1.04
UCAAGUCCUGUGCUACACAUCGUAUGUACCGAAUCGGUUUGGUUUUUUUGGUGGAAAGUAUUAUGUUACGCCGUUCGGAUCUGCACUUCC | -0.71
UCCAGCCACUCACCGGCGAUCCAGGUCCAGAACCCCCCUGAUAAGCCGACGUAGGUCCAGAUCUCGAACUUCACCAGUCAGCCGGAGACG | 0.897
UGUGGCCGCAGGACGAGUACAUCGUGGAGUACUCACUAGAGUAUGGCUUCCUUCGCCUGUCGCAGGCCACCCGCCAGCGCCUGAGCAUCC | 0.103
CCUGUGCUACACAUCGUAUGUACCGAAUCGGGGUGGGGAAAAAAAGGGGUUUUUUUGGGGAAAGUAUUAUGUUACGCCGUUCGGAUCUGC | 0.108
AAGUCCUGUGCUACACAUCGUAUGUACCGAAUCGGGGUGGGGAAAAAGGGGAGGGGAAAGUAUUAUGUUACGCCGUUCGGAUCUGCACUU | 0.651
CUCAAGUCCUGUGCUACACAUCGUAUGUACCGAAUCGGGAAAGGGUGGGUGGGAAAGUAUUAUGUUACGCCGUUCGGAUCUGCACUUCCA | 1.13
UAACUUUAGAGGAGGAUCUGAUGGAUAUGGCAGUGGACGUGGGUUUGGGGAUGGCUAUAAUGGGUAUGGAGGAGGACCUGGAGGUGGCAA | 0.559
ACCAUGCAGGUGGGCAUCUUUGGGAAGUGGGGCAAGGGGGGGUUAGGGAGGGGGGUAACACUUUGGGAACAGGUGGUCCCAGGUCGUUUC | 1.2

Block 3 — technique: RNA Bind-n-Seq; molecule type: RNA; sample: in vitro; tested at: 365 nM; relative to: no-protein control; reading: higher = stronger binding
Target: RNA binding protein fox-1 homolog 2, RRM domain, GST-SBP tag (RBFOX2, Homo sapiens, UniProt O43251-10, residues 100-194)
Notes: natural RNA segment, single round, ends assumed
Shared flanks, not repeated: GGGAGUUCUACAGUCCGACGAUC … UGGAAUUCUCGGGUGCCAA
Residues (chain): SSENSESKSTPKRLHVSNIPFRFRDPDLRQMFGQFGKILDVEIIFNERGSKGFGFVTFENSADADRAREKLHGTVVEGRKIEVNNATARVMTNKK
Strand | RBNS enrichment (R)
UUCAUUUAGAGACCACAGUAACAACAGCAGCCCACCAAUCAGAGAAGCUGGUUGUUAUUAACCAAGCUACAGAUUCACACUUUCUGGCCUAAACCCUAAUGGGAUGAGGC | 0.264
AUGUUGCUAAUAUUAAGGCUUCAGGGCUACUUUUAUCAACAUGCCUGUCUUCAAGAUCCCAGUUUAUGUUCUGUGUCCUUCCUCAUGAUUUCCAACCUUAAUACUAUUAG | 0.582
UCCAAAGAAUUCUGUAUAAACAUAUGCCAAUUCCCUAUGAUGGUCUAGAGUUAGGAAUGAGUGUUUAUGGUGUUGCUUAUAGAACAACUCAGGUAAUCUCCAUUUCUGGU | 0.509
AAGCAAUUUUCACGCACAGUAGAUUCAACUUGUUUUUUGUGCUGUUUUUUGAUUUUUGCUGACUUAAAAAGGAUUAAUUUGGGCAGACAUUAUAAAAAGGAAAGGGUUAA | 0.881
AAGUAAUGAUUCCUCUAAAGGGAAAGGAAGUUUUAAGAGGGAGGCUUGGACAAUCUUAGUAUUUACACGUGAGAUGAAAUGAAGAGUCCCGUGUGCUGCUCUGUGUGCAA | 1.02
AUAUUUUAUAAACCACUAGUGCCUUUGGGUUUCUUUGCCAAAAACUUAAGCCAGCCUCUAUCACCAAAAAAAAAGUCUCACCUCUAAUAAAUACACAUUUGCCAGGAAAA | 0.691
ACAAAACCACAGUGUACCAUUAAAAUAUGCACUAAGUCUCUUUUUUACAAAGGCUGUAUUCAGCAAGGCGCUAACUUGCUUAAAUGUGAAUUACUAACUUCUAAAACUGU | 0.338
AUCUCCUGUAAAGAGAACAGAGGAGUCUUUAAUGGUUUCUGGAAGGAGAAGGGAUAGGACUUUGUGGUACAGCUCUAGUUUCUGUGAGAAUCCCUUUUAUUUGCAGUUUA | 0.545
UCUAAUUCUAGCCAAGCUUCUGUGUGAAGCUAUAAGGUCUGUGAAUGCCAUACGGCCCUUUAUUGCCAUCCUAUACUUGUAAAUACGAUCCUGCUCUCAAGUGAAAUGAG | 1.01
GACGAAGCCUUGAGCUGAAGGAGGUGCUGUCGGCUAGGCCUCUACUCUGGGUUUCAGAGAGUAGUAUUGGUUUCAGUCUGGUCUCAUUUCCAUUGCCUUAACGCUGGGUG | 0.302
GGCUUAAGAGUCACAUCUUAGCACUUCCGCUCUCAGGCCUCCUCCUCCAUCACAGAUGUCUGGAUGCUUUUGGAAAUGGCCUUGGCUAAAGUAAAAGGGAAAAGUAGAUC | 0.278
UCUUCCAUAAGAGUUCCCAAGCUCUGUCCACUGUUUGGCUAUGGGUGUCUCUGUCUGAGUUAGCUGCUGGGUGGAGCCUCACAUGUUCCUAUCUGUUACCAUAACAGAGU | 0.262

Block 4 — target: CCNE1, cyclin fold, Cln2 fusion (human); technique: yeast growth competition, sequencing; sample: yeast; notes: strong parent motif; relative to: not given; reading: higher = stronger binding
Parent: PKMYT1 docking peptide (human); SFEPRNLLSLFED; partner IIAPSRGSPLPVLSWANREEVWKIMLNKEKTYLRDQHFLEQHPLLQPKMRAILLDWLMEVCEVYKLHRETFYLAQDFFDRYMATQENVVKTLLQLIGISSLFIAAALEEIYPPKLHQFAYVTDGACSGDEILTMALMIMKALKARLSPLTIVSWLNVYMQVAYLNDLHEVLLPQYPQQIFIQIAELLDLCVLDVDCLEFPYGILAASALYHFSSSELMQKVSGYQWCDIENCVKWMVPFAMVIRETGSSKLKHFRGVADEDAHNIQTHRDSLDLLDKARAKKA
Variant | normalised enrichment score
SFEPRNQLSLFED [L7Q] | 0.0731
SNEPRNLLSLFED [F2N] | 0.27
SFEPRNILSLFED [L7I] | 1.56
SFEPRNLWSLFED [L8W] | 0.889
SFEPTNLLSLFED [R5T] | 1.49
SFEPRNYLSLFED [L7Y] | 0.399
SFEPRNLLYLFED [S9Y] | 2.37
SFEPRNLLNLFED [S9N] | 1.54
SFEPRNLVSLFED [L8V] | 0.307
SFETRNLLSLFED [P4T] | 0.824
SFEPENLLSLFED [R5E] | 1.06
SFEVRNLLSLFED [P4V] | 1.18
SFEYRNLLSLFED [P4Y] | 0.65
QFEPRNLLSLFED [S1Q] | 1.65
RFEPRNLLSLFED [S1R] | 1.43
SFEPRNNLSLFED [L7N] | -0.00305

Block 5 — technique: universal PBM; molecule type: double-stranded DNA, one strand shown; sample: in vitro; tested at: not given; reading: higher = stronger binding
Target: Sal-like protein 4, full length isoform B (SALL4, Homo sapiens, UniProt Q9UJQ4-2, residues 1-616)
Notes: 8-mer, flanks averaged, mean of replicates
Strand | E-score
GAGTGCAA | 0.0402
TCTTGCCA | -0.047
GAATAGTA | 0.279
ATGAACTA | 0.276
CGCAATCC | -0.0248
GAGACGCC | -0.204
ACCGCGGC | -0.331
CTGCTCCC | -0.241
ATCGGGTC | -0.158
GTTGAATA | 0.286
ACCTGTAC | 0.067
TGCTAGAA | -0.0306
GACAGGGC | -0.333
CTTCAGAA | -0.0239
GCCATGCC | -0.0939
ACAGAACG | -0.0401
CCATACTC | -0.0933
CGGCTATC | -0.176
CATCGAAC | -0.00536
ACGAGTAG | 0.0168
CGTGGACA | -0.195
GGCAAATA | 0.201
CGCATTGC | -0.06
AAAGATGA | 0.181

A few entries again (block 1):
Strand | E-score
CATGTGAG | 0.422
ACCGTGTG | 0.272
ACACGCCT | 0.346
AATGTGTC | 0.278
AGGCCACG | 0.34
CGCGCACG | 0.404
